Measurements of several laboratories.
CTSK: Cathepsin K (CTSK, Homo sapiens, UniProt P43235)
Sequence of UniProt P43235 (whole entry, looked up): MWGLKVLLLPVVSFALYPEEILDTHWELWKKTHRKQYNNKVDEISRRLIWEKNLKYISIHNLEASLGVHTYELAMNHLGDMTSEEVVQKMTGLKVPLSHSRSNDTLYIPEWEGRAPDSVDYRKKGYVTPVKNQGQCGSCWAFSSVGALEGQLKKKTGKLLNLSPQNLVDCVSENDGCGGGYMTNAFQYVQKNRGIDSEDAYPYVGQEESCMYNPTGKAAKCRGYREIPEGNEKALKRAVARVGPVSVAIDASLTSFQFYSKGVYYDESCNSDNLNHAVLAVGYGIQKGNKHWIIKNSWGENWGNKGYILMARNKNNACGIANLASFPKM
PGR: Progesterone receptor (PGR, Homo sapiens, UniProt P06401)
Sequence of UniProt P06401 (whole entry, looked up): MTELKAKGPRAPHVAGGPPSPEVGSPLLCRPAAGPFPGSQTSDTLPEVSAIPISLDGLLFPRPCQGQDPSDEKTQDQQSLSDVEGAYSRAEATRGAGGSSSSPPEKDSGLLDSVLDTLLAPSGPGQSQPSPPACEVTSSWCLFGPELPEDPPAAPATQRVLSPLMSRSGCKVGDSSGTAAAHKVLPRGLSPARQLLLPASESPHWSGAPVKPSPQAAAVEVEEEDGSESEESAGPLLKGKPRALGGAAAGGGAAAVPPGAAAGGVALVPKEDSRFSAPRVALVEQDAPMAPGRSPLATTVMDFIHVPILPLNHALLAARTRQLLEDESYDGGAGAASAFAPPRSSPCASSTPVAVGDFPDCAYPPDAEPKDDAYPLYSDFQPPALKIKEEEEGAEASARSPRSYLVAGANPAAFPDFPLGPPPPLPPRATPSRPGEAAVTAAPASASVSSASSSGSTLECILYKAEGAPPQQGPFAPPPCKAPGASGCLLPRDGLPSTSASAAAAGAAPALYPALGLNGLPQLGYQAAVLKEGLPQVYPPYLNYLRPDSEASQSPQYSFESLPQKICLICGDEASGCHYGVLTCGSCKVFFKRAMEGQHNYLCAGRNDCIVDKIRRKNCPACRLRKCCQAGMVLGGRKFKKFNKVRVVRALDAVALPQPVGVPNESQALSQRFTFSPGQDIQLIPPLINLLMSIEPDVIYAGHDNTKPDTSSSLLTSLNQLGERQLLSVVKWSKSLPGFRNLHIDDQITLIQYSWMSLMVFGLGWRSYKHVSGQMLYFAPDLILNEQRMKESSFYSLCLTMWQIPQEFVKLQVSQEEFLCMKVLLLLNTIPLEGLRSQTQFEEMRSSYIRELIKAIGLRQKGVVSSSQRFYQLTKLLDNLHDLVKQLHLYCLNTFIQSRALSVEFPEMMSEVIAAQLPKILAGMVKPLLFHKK
Sequence of UniProt Q3UFF7 (whole entry, looked up): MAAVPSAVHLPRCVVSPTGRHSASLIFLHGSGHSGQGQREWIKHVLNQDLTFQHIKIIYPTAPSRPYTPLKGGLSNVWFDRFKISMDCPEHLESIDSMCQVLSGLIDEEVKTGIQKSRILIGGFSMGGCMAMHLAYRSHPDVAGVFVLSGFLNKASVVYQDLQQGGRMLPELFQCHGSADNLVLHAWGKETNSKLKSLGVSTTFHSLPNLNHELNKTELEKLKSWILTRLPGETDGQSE
Sequence of UniProt P06536 (whole entry, looked up): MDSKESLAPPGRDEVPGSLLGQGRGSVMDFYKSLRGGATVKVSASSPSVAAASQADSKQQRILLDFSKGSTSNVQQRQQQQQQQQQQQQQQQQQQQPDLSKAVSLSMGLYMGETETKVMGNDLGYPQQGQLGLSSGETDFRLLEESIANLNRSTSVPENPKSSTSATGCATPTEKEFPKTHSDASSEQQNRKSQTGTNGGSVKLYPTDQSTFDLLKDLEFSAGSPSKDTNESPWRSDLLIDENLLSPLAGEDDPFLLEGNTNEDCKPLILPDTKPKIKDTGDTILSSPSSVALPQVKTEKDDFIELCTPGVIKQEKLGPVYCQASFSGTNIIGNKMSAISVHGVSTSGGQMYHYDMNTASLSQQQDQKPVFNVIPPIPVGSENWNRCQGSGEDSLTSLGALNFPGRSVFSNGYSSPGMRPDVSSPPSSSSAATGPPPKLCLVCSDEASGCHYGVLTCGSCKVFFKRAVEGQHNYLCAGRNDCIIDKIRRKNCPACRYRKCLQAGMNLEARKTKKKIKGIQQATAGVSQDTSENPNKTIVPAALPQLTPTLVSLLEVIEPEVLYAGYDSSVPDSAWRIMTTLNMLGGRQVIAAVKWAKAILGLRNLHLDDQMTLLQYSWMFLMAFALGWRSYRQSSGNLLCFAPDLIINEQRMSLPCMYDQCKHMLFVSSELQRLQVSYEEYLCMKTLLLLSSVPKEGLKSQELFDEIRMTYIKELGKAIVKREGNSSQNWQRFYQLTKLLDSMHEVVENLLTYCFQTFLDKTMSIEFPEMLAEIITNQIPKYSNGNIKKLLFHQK
Sequence of UniProt P10721 (whole entry, looked up): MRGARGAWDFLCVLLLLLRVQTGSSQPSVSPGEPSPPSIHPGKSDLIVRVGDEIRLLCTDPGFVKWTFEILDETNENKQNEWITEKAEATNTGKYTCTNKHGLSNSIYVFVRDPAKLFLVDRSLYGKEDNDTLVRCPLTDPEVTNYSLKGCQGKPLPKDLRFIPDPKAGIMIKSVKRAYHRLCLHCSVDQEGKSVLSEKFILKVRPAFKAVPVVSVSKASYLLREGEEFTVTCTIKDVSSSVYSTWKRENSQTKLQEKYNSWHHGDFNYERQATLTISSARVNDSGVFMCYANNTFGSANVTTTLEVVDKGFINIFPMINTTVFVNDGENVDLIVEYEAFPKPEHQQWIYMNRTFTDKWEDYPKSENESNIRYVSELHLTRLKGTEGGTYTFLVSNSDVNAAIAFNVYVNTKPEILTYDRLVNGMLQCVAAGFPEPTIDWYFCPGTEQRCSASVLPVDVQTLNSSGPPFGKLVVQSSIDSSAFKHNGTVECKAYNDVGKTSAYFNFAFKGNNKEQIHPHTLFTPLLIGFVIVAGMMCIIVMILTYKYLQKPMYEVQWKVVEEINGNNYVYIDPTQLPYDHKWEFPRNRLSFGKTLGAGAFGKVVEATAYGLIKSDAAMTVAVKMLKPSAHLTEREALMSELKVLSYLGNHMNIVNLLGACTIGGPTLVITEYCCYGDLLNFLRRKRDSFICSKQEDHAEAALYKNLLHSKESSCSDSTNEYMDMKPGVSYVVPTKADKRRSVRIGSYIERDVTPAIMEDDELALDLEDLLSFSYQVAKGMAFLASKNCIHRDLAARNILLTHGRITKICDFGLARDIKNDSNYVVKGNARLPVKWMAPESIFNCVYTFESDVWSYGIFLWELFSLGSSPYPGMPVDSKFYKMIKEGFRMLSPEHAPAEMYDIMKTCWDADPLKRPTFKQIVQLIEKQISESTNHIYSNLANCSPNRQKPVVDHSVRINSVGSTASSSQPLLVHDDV
Sequence of UniProt P46154 (whole entry, looked up): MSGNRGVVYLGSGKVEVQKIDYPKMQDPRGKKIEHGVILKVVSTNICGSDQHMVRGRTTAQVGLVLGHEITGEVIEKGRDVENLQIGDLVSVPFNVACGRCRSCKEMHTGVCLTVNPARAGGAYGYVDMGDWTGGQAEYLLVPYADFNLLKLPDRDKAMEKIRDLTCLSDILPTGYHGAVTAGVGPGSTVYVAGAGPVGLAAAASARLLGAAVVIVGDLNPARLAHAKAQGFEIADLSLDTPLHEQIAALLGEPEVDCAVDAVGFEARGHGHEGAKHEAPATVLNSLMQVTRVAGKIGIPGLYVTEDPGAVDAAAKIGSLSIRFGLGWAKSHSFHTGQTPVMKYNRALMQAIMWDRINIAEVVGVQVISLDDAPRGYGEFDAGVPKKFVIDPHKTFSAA

Compound = CC(=O)N[C@@H](Cc1c[nH]c2ccccc12)C(=O)N[C@@H](Cc1c[nH]c2ccccc12)C(=O)N[C@@H](Cc1c[nH]c2ccccc12)C(=O)N[C@@H](Cc1c[nH]c2ccccc12)C(=O)N[C@@H](Cc1c[nH]c2ccccc12)C(=O)N[C@@H](Cc1c[nH]c2ccccc12)C(=O)NCCCC[C@@H]1NC(=O)[C@H](CCCNC(=N)N)NC(=O)[C@H](CCCNC(=N)N)NC(=O)[C@H](CCCNC(=N)N)NC(=O)[C@H](CCCNC(=N)N)NC(=O)[C@H](CCCNC(=N)N)NC(=O)[C@H](CCCNC(=N)N)NC1=O; target = PRKCA (Homo sapiens, UniProt P17252); assay = enzyme activity, inhibitor; setting = 5 µM; remaining activity = 6.8%
Compound = COC(=O)CN1CCCc2cc3cc(C(=O)NC(Cc4cccc(Cl)c4)C(=O)NCC=CS(=O)(=O)c4ccccc4)c(=O)oc3cc21 (stereo not shown); target = CTSK; assay = enzyme activity, inhibitor, fluorescence; setting = 5 µM; remaining activity = 17%
Compound = O=C(O)c1ccnc(C(=O)O)c1Br; target = fdhA (Pseudomonas putida, UniProt P46154); assay = inhibitor, spectrophotometric; setting = 200 µM; remaining activity = 100%
Compound = CC(C)(C)OC(=O)NC(Cc1cccc(Cl)c1)C(=O)NCC=CS(=O)(=O)c1ccccc1 (stereo not shown); target = CTSK; assay = enzyme activity, inhibitor, fluorescence; setting = 5 µM; remaining activity = 79%
Compound = CCCCCCCCSc1nc2c([nH]1)c(=O)n(C)c(=S)n2C; target = Nr3c1 (Rattus norvegicus, UniProt P06536); assay = reporter gene, antagonist, MMTV-luciferase; test system = T47D/A1-2; setting = 10 µM, 24 h, together with: 5 nM dexamethasone; how to read = relative to: maximal activity; remaining activity = 91%
Compound = N=C(N)NCCC[C@@H]1NC(=O)[C@H](Cc2c[nH]c3ccccc23)NC(=O)[C@H](CCCNC(=N)N)NC(=O)[C@H](Cc2c[nH]c3ccccc23)NC(=O)[C@H](CCCNC(=N)N)NC(=O)[C@H](Cc2c[nH]c3ccccc23)NC(=O)[C@H](CCCNC(=N)N)NC(=O)[C@H](Cc2c[nH]c3ccccc23)NC(=O)[C@H](CCCNC(=N)N)NC(=O)[C@H](Cc2c[nH]c3ccccc23)NC(=O)[C@H](CCCNC(=N)N)NC(=O)[C@H](Cc2c[nH]c3ccccc23)NC(=O)[C@H](CCCNC(=N)N)NC(=O)[C@H](Cc2c[nH]c3ccccc23)NC(=O)[C@H](CCCNC(=N)N)NC(=O)[C@H](Cc2c[nH]c3ccccc23)NC(=O)[C@H](CCCNC(=N)N)NC(=O)[C@H](Cc2c[nH]c3ccccc23)NC1=O; target = KIT (Homo sapiens, UniProt P10721); assay = enzyme activity, inhibitor; setting = 5 µM; remaining activity = 38.8%
Compound = CCSc1nc2c([nH]1)c(=O)n(C)c(=O)n2C; target = PGR; assay = reporter gene, antagonist, MMTV-luciferase; test system = T47D/A1-2; setting = 10 µM, 24 h, together with: 5 nM progesterone; how to read = relative to: maximal activity; remaining activity = 60%
Compound = Cc1nc2ccc(S(=O)(=O)n3nc(SCc4ccc(Cl)cc4)nc3N)cc2s1; target = Lysophospholipase-like protein 1 (Mus musculus, UniProt Q3UFF7); assay = gel-based ABPP; test system = mouse, liver and kidney; setting = intraperitoneal, 100 mg/kg; how to read = relative to: vehicle; remaining activity = 1.8 to 2 fold
Compound = CCCCC(C)Sc1nc2c([nH]1)c(=S)n(C)c(=O)n2C (stereo not shown); target = PGR; assay = reporter gene, antagonist, MMTV-luciferase; test system = T47D/A1-2; setting = 10 µM, 24 h, together with: 5 nM progesterone; how to read = relative to: maximal activity; remaining activity = 58%
Compound = CC1(C)CCN(Cc2ccc(C(=O)NC[C@]3(O)CCCN(c4cc(NCc5ccccc5)ncn4)C3)c(O)c2)CC1; target = PRDM9 (Homo sapiens, UniProt Q9NQV7); assay = enzyme activity, inhibitor, radiometric; setting = 10 µM; remaining activity = 101%

Excerpt of the above:
Compound = CC(C)(C)OC(=O)NC(Cc1cccc(Cl)c1)C(=O)NCC=CS(=O)(=O)c1ccccc1 (stereo not shown); target = CTSK; assay = enzyme activity, inhibitor, fluorescence; setting = 5 µM; remaining activity = 79%
